Earlier results that unrelated publications cite.
Lines come from different studies, so protocols differ.

With `CN1CCN(c2cnc3c(C4CCN(C(=O)c5ccc(OC(F)(F)F)cc5N)CC4)ncnc3c2)CC1` the IC50 was 115 nM (MAPK7; cellular activity).
`CS(=O)(=O)CCNCc1ccc(-c2ccc3ncnc(Nc4ccc(OCc5cccc(F)c5)c(Cl)c4)c3c2)o1` gave an IC50 of 3900 nM (P-glycoprotein human; efflux transport, inhibitor; MDCKII-MDR1; added: [3H]digoxin).
For `CN(C)[C@H]1CCN(c2cc(-c3ccccc3)nc3ccnn23)C1`, the EC50 was greater than 100000 nM (MRGPRX2; cellular activity).
With `COC(=O)N[C@H](C(=O)N1CCC[C@H]1c1nc(-c2ccc3c(c2)O[C@@H](c2ccccc2)n2c-3cc3cc(-c4c[nH]c([C@@H]5CCCN5C(=O)[C@@H](NC(=O)OC)C(C)C)n4)ccc32)c[nH]1)C(C)C` the AUC(0-24) difference was no more than 15% (HCV genotype 1 patients; 50 mg, 10 days; baseline: healthy volunteers).
For `O=C(O)c1cc(-c2ccc(C3CCNCC3)cc2)c2ccc(-c3ccc(C(F)(F)F)cc3)cc2c1`, the IC50 was 2310 nM (SLC6A3; radioligand binding; 10 µM).
For `C=C[C@@H]1C[C@]1(NC(=O)[C@@H]1C[C@@H]2CN1C(=O)[C@H](C(C)(C)C)NC(=O)O[C@@H]1C[C@H]1CCCCCc1nc3ccc(OC)cc3nc1O2)C(=O)NS(=O)(=O)C1CC1`, the IC50 was 700 nM (human OATP1B1; uptake, inhibitor; MDCKII-OATP1B1 cells; added: pitavastatin).
`CC(Cc1ccccc1)(NC(=O)CN)c1ccccc1.Cl` (centres unmarked): activity class “inactive” (Toxoplasma gondii; parasite growth; concentration not given, published screen).
For `CC(=O)N1CCC(c2ccc(C(=O)NC3=NCCN3)cc2C(F)(F)F)CC1`, the IC50 was greater than 10000 nM (SLC9A1; cellular activity).

Excerpt of the above:
For `CC(=O)N1CCC(c2ccc(C(=O)NC3=NCCN3)cc2C(F)(F)F)CC1`, the IC50 was greater than 10000 nM (SLC9A1; cellular activity).
